Published values from different studies.
Every numbered part comes from another study and shows a few of its results, in no order. “And” joins repeats or separate records; there may be more than shown.
Sequence of UniProt Q9UQM7 (whole entry, looked up): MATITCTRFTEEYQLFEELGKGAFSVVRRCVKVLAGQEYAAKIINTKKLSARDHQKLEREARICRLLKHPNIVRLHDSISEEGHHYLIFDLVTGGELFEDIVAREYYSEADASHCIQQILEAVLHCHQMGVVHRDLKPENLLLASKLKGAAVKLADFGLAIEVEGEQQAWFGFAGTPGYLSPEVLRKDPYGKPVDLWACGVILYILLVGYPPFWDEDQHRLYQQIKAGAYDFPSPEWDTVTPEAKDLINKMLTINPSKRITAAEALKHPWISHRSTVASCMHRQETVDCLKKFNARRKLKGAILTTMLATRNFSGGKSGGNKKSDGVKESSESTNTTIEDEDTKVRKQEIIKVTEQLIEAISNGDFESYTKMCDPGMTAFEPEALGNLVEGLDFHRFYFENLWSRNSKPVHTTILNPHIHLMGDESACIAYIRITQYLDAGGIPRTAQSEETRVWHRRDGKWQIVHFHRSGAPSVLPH
Sequence of UniProt P15056 (whole entry, looked up): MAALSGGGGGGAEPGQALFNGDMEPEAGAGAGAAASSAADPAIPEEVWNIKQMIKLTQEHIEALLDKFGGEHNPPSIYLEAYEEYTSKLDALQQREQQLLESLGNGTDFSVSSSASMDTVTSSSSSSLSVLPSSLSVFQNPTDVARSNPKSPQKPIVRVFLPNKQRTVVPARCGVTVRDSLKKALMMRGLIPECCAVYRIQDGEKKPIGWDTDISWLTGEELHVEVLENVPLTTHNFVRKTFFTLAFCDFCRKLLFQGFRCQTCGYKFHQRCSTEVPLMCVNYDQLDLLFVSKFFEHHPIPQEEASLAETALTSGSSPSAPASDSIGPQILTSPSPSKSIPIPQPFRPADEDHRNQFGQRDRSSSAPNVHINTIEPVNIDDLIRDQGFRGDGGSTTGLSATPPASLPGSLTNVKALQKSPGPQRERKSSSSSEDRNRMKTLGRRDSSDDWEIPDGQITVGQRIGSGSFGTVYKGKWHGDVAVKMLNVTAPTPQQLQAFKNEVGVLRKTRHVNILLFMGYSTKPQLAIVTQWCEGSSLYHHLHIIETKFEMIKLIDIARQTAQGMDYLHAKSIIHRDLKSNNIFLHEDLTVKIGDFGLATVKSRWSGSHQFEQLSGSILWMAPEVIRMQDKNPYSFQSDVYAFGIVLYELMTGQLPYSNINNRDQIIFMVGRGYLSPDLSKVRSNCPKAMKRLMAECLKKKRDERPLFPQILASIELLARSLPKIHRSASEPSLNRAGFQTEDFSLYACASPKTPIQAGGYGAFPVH
Sequence of UniProt Q13188 (whole entry, looked up): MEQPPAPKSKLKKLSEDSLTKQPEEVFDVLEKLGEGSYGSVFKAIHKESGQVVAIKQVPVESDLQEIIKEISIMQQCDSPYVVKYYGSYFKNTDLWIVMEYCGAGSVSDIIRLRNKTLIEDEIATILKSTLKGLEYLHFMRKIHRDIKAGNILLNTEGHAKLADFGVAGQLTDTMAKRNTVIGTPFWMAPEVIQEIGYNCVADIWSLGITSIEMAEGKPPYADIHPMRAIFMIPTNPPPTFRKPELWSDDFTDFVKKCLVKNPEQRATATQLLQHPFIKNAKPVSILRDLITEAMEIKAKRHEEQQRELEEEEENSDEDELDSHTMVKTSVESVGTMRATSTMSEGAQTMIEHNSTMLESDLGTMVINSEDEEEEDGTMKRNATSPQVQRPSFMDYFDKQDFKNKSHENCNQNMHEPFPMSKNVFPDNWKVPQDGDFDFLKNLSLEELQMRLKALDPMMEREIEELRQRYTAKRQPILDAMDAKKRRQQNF
Sequence of UniProt Q9UL54 (whole entry, looked up): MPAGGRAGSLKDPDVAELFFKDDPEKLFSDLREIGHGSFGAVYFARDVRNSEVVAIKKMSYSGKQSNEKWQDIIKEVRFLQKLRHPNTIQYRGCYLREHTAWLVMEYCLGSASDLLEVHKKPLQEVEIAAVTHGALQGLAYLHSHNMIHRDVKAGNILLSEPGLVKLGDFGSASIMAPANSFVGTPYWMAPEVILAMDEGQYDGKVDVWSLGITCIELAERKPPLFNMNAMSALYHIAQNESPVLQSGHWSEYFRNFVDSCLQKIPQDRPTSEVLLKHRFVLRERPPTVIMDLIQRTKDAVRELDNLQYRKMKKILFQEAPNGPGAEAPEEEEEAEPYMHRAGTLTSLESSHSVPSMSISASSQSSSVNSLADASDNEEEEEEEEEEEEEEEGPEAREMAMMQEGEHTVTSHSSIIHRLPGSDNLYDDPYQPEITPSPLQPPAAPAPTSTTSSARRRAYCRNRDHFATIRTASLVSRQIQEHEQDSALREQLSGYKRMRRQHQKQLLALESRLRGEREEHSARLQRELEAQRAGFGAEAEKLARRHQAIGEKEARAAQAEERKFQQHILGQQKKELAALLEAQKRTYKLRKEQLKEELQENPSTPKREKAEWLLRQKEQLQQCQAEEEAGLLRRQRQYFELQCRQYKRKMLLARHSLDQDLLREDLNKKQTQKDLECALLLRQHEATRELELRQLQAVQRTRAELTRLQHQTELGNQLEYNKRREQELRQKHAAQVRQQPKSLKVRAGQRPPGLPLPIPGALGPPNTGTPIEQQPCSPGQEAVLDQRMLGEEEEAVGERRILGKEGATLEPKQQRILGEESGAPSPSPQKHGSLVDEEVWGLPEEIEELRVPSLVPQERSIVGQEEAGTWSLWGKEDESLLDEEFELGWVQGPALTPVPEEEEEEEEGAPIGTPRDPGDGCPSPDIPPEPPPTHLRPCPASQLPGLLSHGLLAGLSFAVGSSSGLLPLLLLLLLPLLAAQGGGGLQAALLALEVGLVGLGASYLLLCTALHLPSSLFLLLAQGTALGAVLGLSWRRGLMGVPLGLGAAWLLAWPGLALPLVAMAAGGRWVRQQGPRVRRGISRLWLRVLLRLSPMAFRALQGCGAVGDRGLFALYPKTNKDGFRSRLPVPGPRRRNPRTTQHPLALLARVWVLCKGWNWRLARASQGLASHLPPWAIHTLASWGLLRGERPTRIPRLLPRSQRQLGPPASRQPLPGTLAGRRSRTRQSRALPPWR
Sequence of UniProt Q13043 (whole entry, looked up): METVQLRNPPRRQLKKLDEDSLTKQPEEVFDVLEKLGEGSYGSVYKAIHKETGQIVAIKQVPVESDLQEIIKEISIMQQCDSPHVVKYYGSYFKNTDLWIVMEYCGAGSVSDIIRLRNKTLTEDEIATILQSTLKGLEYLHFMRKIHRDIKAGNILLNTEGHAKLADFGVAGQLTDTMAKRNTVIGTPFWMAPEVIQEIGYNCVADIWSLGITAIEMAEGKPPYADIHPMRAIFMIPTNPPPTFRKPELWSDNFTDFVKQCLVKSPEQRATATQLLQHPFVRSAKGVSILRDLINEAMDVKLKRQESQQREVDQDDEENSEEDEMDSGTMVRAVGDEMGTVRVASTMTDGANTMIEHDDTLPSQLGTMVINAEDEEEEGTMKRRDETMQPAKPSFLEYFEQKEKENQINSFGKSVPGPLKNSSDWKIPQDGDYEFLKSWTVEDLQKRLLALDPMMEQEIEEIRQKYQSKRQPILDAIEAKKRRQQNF
Sequence of UniProt Q9H093 (whole entry, looked up): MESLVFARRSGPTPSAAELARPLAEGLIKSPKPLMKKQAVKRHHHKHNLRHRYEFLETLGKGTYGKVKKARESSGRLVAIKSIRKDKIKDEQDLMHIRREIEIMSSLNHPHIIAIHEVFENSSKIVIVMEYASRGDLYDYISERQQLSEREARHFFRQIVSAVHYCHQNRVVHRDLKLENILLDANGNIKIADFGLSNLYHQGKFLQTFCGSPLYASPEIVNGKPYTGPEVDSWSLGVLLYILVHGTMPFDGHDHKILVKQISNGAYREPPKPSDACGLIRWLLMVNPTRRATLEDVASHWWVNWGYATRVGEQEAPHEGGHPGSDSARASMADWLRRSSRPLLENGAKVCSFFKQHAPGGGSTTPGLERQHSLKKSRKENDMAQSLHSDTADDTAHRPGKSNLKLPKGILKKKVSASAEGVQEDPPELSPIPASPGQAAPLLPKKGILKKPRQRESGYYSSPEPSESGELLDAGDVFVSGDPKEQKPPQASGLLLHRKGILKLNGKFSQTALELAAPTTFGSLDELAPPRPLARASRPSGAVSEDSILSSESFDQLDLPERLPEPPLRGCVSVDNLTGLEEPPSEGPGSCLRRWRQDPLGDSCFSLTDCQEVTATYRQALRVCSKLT

Block 1
Compound: O=C(Nc1cnn(-c2csc(C(=O)NC3COC3)c2)c1)Nc1ccccc1Cl
Observed: enzyme activity
Concentration: 5 µM
Relative to: untreated control
Endpoint: remaining activity
Tyrosine-protein kinase ITK/TSK (ITK, Homo sapiens, UniProt Q08881): 99.3%
MAP kinase-activated protein kinase 2 (MAPKAPK2, Homo sapiens, UniProt P49137): 95.8%
Leucine-rich repeat serine/threonine-protein kinase 2 (LRRK2, Homo sapiens, UniProt Q5S007): 87.9%
MAP kinase-interacting serine/threonine-protein kinase 1 (MKNK1, Homo sapiens, UniProt Q9BUB5): 94.2%
Serine/threonine-protein kinase TAO2 (TAOK2, Homo sapiens, UniProt Q9UL54): 101%
Serine/threonine-protein kinase B-raf (BRAF, Homo sapiens, UniProt P15056): 86.4%
NUAK family SNF1-like kinase 2 (NUAK2, Homo sapiens, UniProt Q9H093): 97.6%
Serine/threonine-protein kinase 3 (STK3, Homo sapiens, UniProt Q13188): 116%
Calcium/calmodulin-dependent protein kinase type II subunit alpha (CAMK2A, Homo sapiens, UniProt Q9UQM7): 99.6%
RAC-gamma serine/threonine-protein kinase (AKT3, Homo sapiens, UniProt Q9Y243): 84.5%
G protein-coupled receptor kinase 5 (GRK5, Homo sapiens, UniProt P34947): 97.9%
Hepatocyte growth factor receptor (MET, Homo sapiens, UniProt P08581): 100%

Block 2
SMILES: C=CCc1ccc(O)c(-c2ccc(O)c(CC=C)c2)c1
Target: Anoctamin-1 (ANO1, Homo sapiens, UniProt Q5XXA6, del476-501)
Sequence of UniProt Q5XXA6 (whole entry, unmodified, looked up): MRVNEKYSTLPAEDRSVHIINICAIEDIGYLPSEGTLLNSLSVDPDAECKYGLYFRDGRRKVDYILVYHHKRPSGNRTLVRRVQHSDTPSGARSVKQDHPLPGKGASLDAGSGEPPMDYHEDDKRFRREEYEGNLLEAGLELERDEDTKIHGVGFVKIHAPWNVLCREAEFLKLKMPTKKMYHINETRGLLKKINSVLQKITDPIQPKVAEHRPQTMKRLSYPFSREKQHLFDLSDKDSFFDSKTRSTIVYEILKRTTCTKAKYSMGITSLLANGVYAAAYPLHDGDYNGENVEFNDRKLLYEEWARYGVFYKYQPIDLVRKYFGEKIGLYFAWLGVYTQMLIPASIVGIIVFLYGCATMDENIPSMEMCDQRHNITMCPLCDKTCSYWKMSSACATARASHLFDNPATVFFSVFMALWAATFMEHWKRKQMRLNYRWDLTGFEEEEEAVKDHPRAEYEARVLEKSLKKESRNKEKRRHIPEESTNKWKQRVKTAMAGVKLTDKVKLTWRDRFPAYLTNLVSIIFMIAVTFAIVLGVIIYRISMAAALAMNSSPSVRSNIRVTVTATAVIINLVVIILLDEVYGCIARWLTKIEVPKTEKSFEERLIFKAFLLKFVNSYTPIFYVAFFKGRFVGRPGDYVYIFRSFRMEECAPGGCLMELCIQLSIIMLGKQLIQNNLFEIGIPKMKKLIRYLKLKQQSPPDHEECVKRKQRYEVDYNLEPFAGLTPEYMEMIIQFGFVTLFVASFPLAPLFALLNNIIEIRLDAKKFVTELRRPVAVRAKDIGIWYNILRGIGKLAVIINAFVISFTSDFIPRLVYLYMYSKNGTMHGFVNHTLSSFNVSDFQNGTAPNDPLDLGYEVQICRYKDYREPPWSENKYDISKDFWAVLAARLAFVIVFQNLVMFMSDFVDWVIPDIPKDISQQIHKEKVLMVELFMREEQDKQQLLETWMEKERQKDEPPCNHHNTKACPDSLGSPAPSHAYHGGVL
Observed: chloride current
Technique: whole-cell patch clamp
Endpoint: normalised current
1 µM, 0 mV, 300 nM free Ca2+: -0.0017
10 µM, 60 mV, 300 nM free Ca2+: 0.123 and 0.117
1 µM, 20 mV, 300 nM free Ca2+, added: honokiol and magnolol 10 µM: 0.0595
10 µM, 0 mV, 300 nM free Ca2+: -0.0004
1 µM, 100 mV, 300 nM free Ca2+: 0.973
30 µM, 40 mV, 300 nM free Ca2+, added: honokiol and magnolol 10 µM: 0.0136
30 µM, 80 mV, 300 nM free Ca2+, added: honokiol and magnolol 10 µM: 0.0738
3 µM, -60 mV, 300 nM free Ca2+, added: honokiol and magnolol 10 µM: -0.0288
30 µM, 60 mV, 300 nM free Ca2+: 0.0397 and 0.0379
30 µM, -60 mV, 300 nM free Ca2+, added: honokiol and magnolol 10 µM: -0.0059
3 µM, 40 mV, 300 nM free Ca2+, added: honokiol and magnolol 10 µM: 0.0701

Block 3
SMILES: CS(=O)(=O)N1CCCC(NC(=O)[C@H](CCC2CCCCC2)NC(=O)c2ccc(CNC(=O)c3cnc4ccccn34)cc2)C1 (stereo partly shown)
Observed: cell-free assay
Technique: competition with immobilised ligand
Concentration: 0.1 µM
Endpoint: remaining binding
Serine/threonine-protein kinase Nek2 (NEK2, Homo sapiens, UniProt P51955): 86%
Serine/threonine-protein kinase PRP4 homolog (PRPF4B, Homo sapiens, UniProt Q13523): 74%
Serine/threonine-protein kinase SIK3 (SIK3, Homo sapiens, UniProt Q9Y2K2): 100%
Calcium/calmodulin-dependent protein kinase type 1D (CAMK1D, Homo sapiens, UniProt Q8IU85): 88%
Serine/threonine-protein kinase TAO2 (TAOK2, Homo sapiens, UniProt Q9UL54): 91%
Ribosomal protein S6 kinase alpha-3, N-terminal kinase domain (RPS6KA3, Homo sapiens, UniProt P51812): 100%
Ephrin type-B receptor 1 (EPHB1, Homo sapiens, UniProt P54762): 89%
Serine/threonine-protein kinase WNK3 (WNK3, Homo sapiens, UniProt Q9BYP7): 85%
Hormonally up-regulated neu tumor-associated kinase (HUNK, Homo sapiens, UniProt P57058): 100%
Mast/stem cell growth factor receptor Kit (KIT, Homo sapiens, UniProt P10721, V559D): 49%
Serine/threonine-protein kinase PLK3 (PLK3, Homo sapiens, UniProt Q9H4B4): 96%
Epidermal growth factor receptor (EGFR, Homo sapiens, UniProt P00533, del747-750/T751S): 100%
Platelet-derived growth factor receptor beta (PDGFRB, Homo sapiens, UniProt P09619): 100%
Dual specificity protein kinase CLK4 (CLK4, Homo sapiens, UniProt Q9HAZ1): 98%
Testis-specific serine/threonine-protein kinase 3 (TSSK3, Homo sapiens, UniProt Q96PN8): 93%

Block 4
Compound: O=Nc1c(-c2c(O)[nH]c3cc(Br)ccc23)[nH]c2ccccc12
Observed: enzyme activity
Mode: inhibitor
Concentration: 0.5 µM
Relative to: control
Endpoint: remaining activity
Tyrosine-protein kinase ZAP-70 (ZAP70, Homo sapiens, UniProt P43403): 107%
Inhibitor of nuclear factor kappa-B kinase subunit alpha (CHUK, Homo sapiens, UniProt O15111): 104%
High affinity nerve growth factor receptor (NTRK1, Homo sapiens, UniProt P04629): 34.5%
Platelet-derived growth factor receptor alpha (PDGFRA, Homo sapiens, UniProt P16234): 68.4%
Serine/threonine-protein kinase 3 (STK3, Homo sapiens, UniProt Q13188): 20.5%
Serine/threonine-protein kinase haspin (HASPIN, Homo sapiens, UniProt Q8TF76): 95.9%
Serine/threonine-protein kinase pim-3 (PIM3, Homo sapiens, UniProt Q86V86): 73.2%
Calcium/calmodulin-dependent protein kinase type II subunit alpha (CAMK2A, Homo sapiens, UniProt Q9UQM7): 13.9%
SRSF protein kinase 2 (SRPK2, Homo sapiens, UniProt P78362): 63.9%
Testis-specific serine/threonine-protein kinase 1 (TSSK1B, Homo sapiens, UniProt Q9BXA7): 83%
Tyrosine-protein kinase SYK (SYK, Homo sapiens, UniProt P43405): 45.7%
Focal adhesion kinase 1 (PTK2, Homo sapiens, UniProt Q05397): 89%
Mitogen-activated protein kinase kinase kinase 7 (MAP3K7, Homo sapiens, UniProt O43318): 79.3%
Dual specificity protein kinase TTK (TTK, Homo sapiens, UniProt P33981): 69.8%
Serine/threonine-protein kinase 4 (STK4, Homo sapiens, UniProt Q13043): 22.5%
Serine/threonine-protein kinase B-raf (BRAF, Homo sapiens, UniProt P15056): 98.2%
Aurora kinase B (AURKB, Homo sapiens, UniProt Q96GD4): 39.1%

Repeated from above (block 2):
1 µM, 20 mV, 300 nM free Ca2+, added: honokiol and magnolol 10 µM: 0.0595
10 µM, 0 mV, 300 nM free Ca2+: -0.0004
30 µM, -60 mV, 300 nM free Ca2+, added: honokiol and magnolol 10 µM: -0.0059
1 µM, 0 mV, 300 nM free Ca2+: -0.0017
3 µM, 40 mV, 300 nM free Ca2+, added: honokiol and magnolol 10 µM: 0.0701
30 µM, 80 mV, 300 nM free Ca2+, added: honokiol and magnolol 10 µM: 0.0738
30 µM, 40 mV, 300 nM free Ca2+, added: honokiol and magnolol 10 µM: 0.0136
1 µM, 100 mV, 300 nM free Ca2+: 0.973
30 µM, 60 mV, 300 nM free Ca2+: 0.0397 and 0.0379
